Measurements gathered from unrelated publications.
Numbered parts are unrelated; each lists some results of a single study. Changes are numbered by the printed parent chain.

Sample 1
Target: Ras GTPase-activating protein-binding protein 1, full length (G3BP1, Homo sapiens, UniProt Q13283)
Chain of UniProt Q13283 (whole entry, looked up): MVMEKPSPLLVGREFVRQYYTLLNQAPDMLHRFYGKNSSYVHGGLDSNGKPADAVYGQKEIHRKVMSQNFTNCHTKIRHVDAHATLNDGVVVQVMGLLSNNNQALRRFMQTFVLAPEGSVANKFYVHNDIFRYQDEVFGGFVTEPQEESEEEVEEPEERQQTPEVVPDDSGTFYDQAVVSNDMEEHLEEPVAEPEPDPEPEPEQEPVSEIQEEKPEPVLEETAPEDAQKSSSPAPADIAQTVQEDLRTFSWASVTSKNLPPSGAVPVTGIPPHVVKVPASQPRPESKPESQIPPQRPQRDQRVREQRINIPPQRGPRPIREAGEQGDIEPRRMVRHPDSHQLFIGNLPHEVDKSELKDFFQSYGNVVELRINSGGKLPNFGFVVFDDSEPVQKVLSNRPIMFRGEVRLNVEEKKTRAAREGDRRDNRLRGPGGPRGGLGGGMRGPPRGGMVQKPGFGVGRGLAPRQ
Method: RNA Bind-n-Seq
Form: RNA
Sample: in vitro
Tested at: 200 nM
Notes: whole 134-nt RNA, ends assumed
With: 150 mM KCl
Baseline: input library
Reading: higher = stronger binding
Quantity: log2 enrichment
Shared flanks, not repeated: GGGAGUUCUACAGUCCGACGAUC … UGGAAUUCUCGGGUGUCAAGG
Oligonucleotide = UCAUCCUUUUUAAAUUUUUUUUUUUUUUUUGAGACGGUCUCACUCUCACCCAGGCUGGAUUGCAGUGGUGUGAUCUCGACCAACUGCAAC; result = -0.165
Oligonucleotide = UCCUGUGCUACACAUCGUAUGUACCGAAUCGGGGUUUGGGGUUUUUGGGGAAAAAGGGGAAAGUAUUAUGUUACGCCGUUCGGAUCUGCA; result = 0.609
Oligonucleotide = CAAGUCCUGUGCUACACAUCGUAUGUACCGAAUCGGGCCCGGGCCCGGGGCCCGGAAAGUAUUAUGUUACGCCGUUCGGAUCUGCACUUC; result = -0.472
Oligonucleotide = UUCCCUCUGUUUUAUUUUUCCCCCGUGUGUCCCUACUAUGGUCAGAAAGCCUGUUGUGUCCACCAUCUCCAAAGGAGGUUACCUGCAGGG; result = 0.0407
Oligonucleotide = UAACUUUAGAGGAGGAUCUGAUGGAUAUGGCAGUGGACGUGGAUUUGGGGAGGGCUAUAAUGGGUAUGGAGGAGGACCUGGAGGUGGCAA; result = 0.92
Oligonucleotide = UGCAGCUCUCCGGCUGGGAUCCUGGUUGACGCCAUGUCCCAGAAGCACCUUCAGAUCAACCAGACAUUUGAGGAGCUGCGACUGGUCACG; result = -1.78
Oligonucleotide = AAGUCCUGUGCUACACAUCGUAUGUACCGAAUCGGGAAAGGGUGGGAAAAAAAGGGAAAGUAUUAUGUUACGCCGUUCGGAUCUGCACUU; result = -0.0293
Oligonucleotide = UCCUGUGCUACACAUCGUAUGUACCGAAUCGGGAAAAAAAGGGAAAGGGAAAAAAAGGGAAAGUAUUAUGUUACGCCGUUCGGAUCUGCA; result = -0.318
Oligonucleotide = CUCAAGUCCUGUGCUACACAUCGUAUGUACCGAAUCGGGAAGGGAAGGGAAGGGAAAGUAUUAUGUUACGCCGUUCGGAUCUGCACUUCC; result = 1.44
Oligonucleotide = UUUAGACAGAAACAAGAAGCAACAGAGUCCCUUAAGUGCCAAGAGGAACUUCGAGAGCGCCUUCAUGAGGAGUCCAGGGCCAGAGAACAG; result = -0.493
Oligonucleotide = AGUCCUGUGCUACACAUCGUAUGUACCGAAUCGGGAAAAAAAGGGAAAGGGUUUGGGAAAGUAUUAUGUUACGCCGUUCGGAUCUGCACU; result = -0.318
Oligonucleotide = UAACUUUAGAGGAGGAUCUGAUGGAUAUGGCAGUGGACGUGGAUUUGCGGAUGGCUAUAAUGGGUAUGGAGGAGGACCUGGAGGUGGCAA; result = 0.304
Oligonucleotide = UGCAGACGGGGAACCUGCUGAACUGGGGCCGCCUGCGGAAGAAGUGCCCGUCCACGCACAGCGAGGAGGUGAGCGUGGCGACACUCGCCG; result = -2.17
Oligonucleotide = CAAGUCCUGUGCUACACAUCGUAUGUACCGAAUCGGGAGGGAGGGUUUUUUUGGGAAAGUAUUAUGUUACGCCGUUCGGAUCUGCACUUC; result = 0.47

Sample 2
Target: Histone acetyltransferase KAT6A, winged helix 1, GST fusion (KAT6A, Homo sapiens, UniProt Q92794, residues 1-85)
Method: protein binding microarray
Form: double-stranded DNA, one strand shown
Sample: in vitro
Tested at: not given
Notes: 8-mer, flanks averaged, mean of 2 arrays, mostly near background
Baseline: not given
Reading: higher = stronger binding
Quantity: E-score
Target sequence (chain): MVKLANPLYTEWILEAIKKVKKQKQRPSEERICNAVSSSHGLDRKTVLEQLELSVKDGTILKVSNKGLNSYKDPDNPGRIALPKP
Oligonucleotide = GACTTAAA; result = -0.133
Oligonucleotide = GTATGAGA; result = -0.0889
Oligonucleotide = GTCGACAA; result = -0.0323
Oligonucleotide = CTAACAAG; result = -0.0821
Oligonucleotide = ACCTTAGC; result = -0.0351
Oligonucleotide = CCGTTGAA; result = -0.0298
Oligonucleotide = ACGACGCG; result = 0.256
Oligonucleotide = GACTCCCC; result = 0.0255
Oligonucleotide = AGGCGACT; result = -0.018
Oligonucleotide = AACGACAA; result = -0.0387
Oligonucleotide = AATGAAGT; result = -0.23
Oligonucleotide = ATACTGAA; result = -0.0421
Oligonucleotide = GCGCGAGC; result = 0.386
Oligonucleotide = ATGAGTAA; result = -0.0444
Oligonucleotide = ATCTTCTG; result = 0.00532
Oligonucleotide = ACGGATCA; result = 0.0712
Oligonucleotide = GGACGGCC; result = 0.384
Oligonucleotide = AGCAGCTC; result = -0.142
Oligonucleotide = CGAGATCG; result = -0.086
Oligonucleotide = ACACAGGG; result = -0.00238
Oligonucleotide = ATGTTCAC; result = -0.215
Oligonucleotide = CAGGAGGC; result = -0.0468

Sample 3
Target: CCNB3, cyclin fold, Cln2 fusion (human)
Method: yeast growth competition, sequencing
Sample: yeast
Notes: strong parent motif
Baseline: not given
Reading: higher = stronger binding
Quantity: normalised enrichment score
Starting sequence: RBL2 docking peptide (human); STTRRRLFVENDS
Variant = R5G; result = -0.0859
Variant = T3Y; result = 0.819
Variant = E10T; result = 0.0533
Variant = D12K; result = 0.651
Variant = D12W; result = 0.581
Variant = D12A; result = 0.461
Variant = N11D; result = 1.46
Variant = S1A; result = 0.84
Variant = T2K; result = 1.81
Variant = S13T; result = 0.781
Variant = N11Q; result = 1.19
Variant = T2H; result = 1.24
Variant = R5Y; result = 0.234
Variant = V9E; result = 0.742
Variant = D12C; result = 0.474
Variant = V9F; result = 1.16

Sample 4
Target: RNA binding protein fox-1 homolog 2, RRM domain, GST-SBP tag (RBFOX2, Homo sapiens, UniProt O43251-10, residues 100-194)
Method: RNA Bind-n-Seq
Form: RNA
Sample: in vitro
Tested at: 365 nM
Notes: natural RNA segment, single round, ends assumed
Baseline: no-protein control
Reading: higher = stronger binding
Quantity: RBNS enrichment (R)
Shared flanks, not repeated: GGGAGUUCUACAGUCCGACGAUC … UGGAAUUCUCGGGUGCCAA
Residues (chain): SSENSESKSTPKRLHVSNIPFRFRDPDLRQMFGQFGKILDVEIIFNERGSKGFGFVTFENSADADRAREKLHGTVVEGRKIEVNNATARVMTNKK
Oligonucleotide = AAAGAUAACAUAUAUAUCCAACUUUCUGAAAUGAAAUGUUUUUAGAUUACUUUUUCAACUGUAAAUAAUGUACAUUUAAUGUCACAAGAAAAAAAUGUCUUCUGCAAAUU; result = 0.49
Oligonucleotide = AAAUCAUUCAGUAAACAUGAGACAAGUUUAGGAAAAACUAAUAAAAUAAACCUGUCUUAAACUUGAAUGGUUUCCUUAAUUCCAUAAUGAAGGCUGCUGGGUGUGUGUGU; result = 0.639
Oligonucleotide = UGAUGUCUAUUCUCCGAGCAUAGCUCUGCCCUGAUUGGCAUUUUAUUCAGAGAGAUGUUUGUCACCUUUCUUUUUGGUAGACCUGUUGGGUUGGUUCCUAUUACAUGAGC; result = 0.301
Oligonucleotide = GUAAUAUAACAAUAUAUGAUAUAUAAACCUUAAAUGAAAAAAAUGAUCUAUUGCAGAUAUUUGAUGUAGUUUUCUUUUUUAAAUUAAUCAGAAACCCCACUUCCAUUGUA; result = 0.792
Oligonucleotide = UCUAGAAACCAGCAGCUACUGGCUCAAAUUCAGGUUCUGGCGUCAAAUAGCGACAUUUCCAGUUUCUCUUAAAAACCGUGUUUGGUUUCAGUUGGGAUAGGCUUGUUUUG; result = 0.328
Oligonucleotide = ACUCAGCCCCCUGGUCUAAGCUGGACUUACCUCUGUGGAUUCUGAAAUUAAAGAAGUGAGUUGCUAAGGAAGGCCCUGACUCCUAUAGAAGGGAGGUCCAUGUGGGCCCA; result = 1.03
Oligonucleotide = CUAUGGUCUAAUGUUCAAAGAUAUGGGUGGACAGGACUGUGGAAGAUGGACAUGAUAAACCAGUUCUCAGUAGGAGGAAGUAGGACCUUCGAGAGUGGGAGUCUGGUACA; result = 0.823
Oligonucleotide = GCAACGAGUUGAAUUCUAAUCCUCACAGGAUGGAUGCCAGUGUCGGCACUUUCUUAAUUAUGAGUAUUGAAAGGUGCUGUUUUCAGUCUCCACAUGUCUGCUGACAAGUU; result = 0.296
Oligonucleotide = UUCUGCCGCCCUUCCUGAGACCUUAGAAACCAGAAGAGCCAUACAGUCAGUGGAAGGCGGGGGGGCCCUGGCCUCUGCACCGGGAUCCCAGUGGGAACCUUCAUGCCUUA; result = 0.407
Oligonucleotide = AGCAAGUUUGACCUUGGUUCUGUUGCUGAAGCAAAUUUGGAACUUUUCUGUCUCAGUGUGAUCCACUAACCCACAGGAUCAUUUGGAACCUUGAAUAGCUCUGCUUGGAC; result = 0.363
Oligonucleotide = CCUUUCAUUUAGCUACUUCAAAUAAUGUUAUCCACCUCCUGUCUCACAGCAGUGGGUACAGCCUGUGUGGGCGCAGGUGGUCCCUUUUCUGUGCCCUGACAAGUAGACUG; result = 0.704
Oligonucleotide = UCUGUGCAAACAGUGAUGGAAGGCUGUUGUCUUGGUGUAUCCCUUGCCUCAUAGUCAAUAUAUUUUUUUUUUGGCGAGUCACCAGUGACCCGAGCCCUCCACACCAGCCU; result = 0.19

Sample 5
Target: CREB5, bZIP domain (human)
Method: DHFR protein complementation
Sample: yeast
Notes: single substitutions, most at no-binding floor
Baseline: wild-type JUN-FOS pair
Reading: higher = stronger binding
Quantity: binding fitness
Starting sequence: JUN, bZIP domain (human); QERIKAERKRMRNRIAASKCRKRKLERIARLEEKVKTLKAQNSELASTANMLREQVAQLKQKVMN; partner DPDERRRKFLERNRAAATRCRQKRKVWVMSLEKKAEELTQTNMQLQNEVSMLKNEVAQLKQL
Variant = A40K; result = -0.128 natural log
Variant = L59C; result = -1.29 natural log
Variant = L52D; result = -1.33 natural log
Variant = S43I; result = -0.213 natural log
Variant = L59T; result = -1.14 natural log
Variant = N42D; result = -1.2 natural log
Variant = E54Q; result = -0.66 natural log
Variant = Q41H; result = -0.46 natural log
Variant = K39G; result = -0.46 natural log
Variant = A40H; result = -0.326 natural log
Variant = I28S; result = -0.645 natural log

Sample 6
Target: ABI1, truncated, D143A, DHFR fusion (Arabidopsis thaliana)
Method: DHFR PCA, deep sequencing
Sample: yeast
Notes: methotrexate growth selection, single substitutions
With: (+)-ABA 4.8 µM
Baseline: wild-type fitted maximum
Reading: higher = stronger binding
Quantity: relative binding score
Starting sequence: PYL1, truncated, DHFR fusion (Arabidopsis thaliana); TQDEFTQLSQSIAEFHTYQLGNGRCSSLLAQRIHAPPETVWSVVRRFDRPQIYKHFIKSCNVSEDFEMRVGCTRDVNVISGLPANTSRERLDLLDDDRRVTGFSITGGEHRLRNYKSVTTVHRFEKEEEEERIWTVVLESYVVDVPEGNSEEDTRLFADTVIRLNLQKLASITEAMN; partner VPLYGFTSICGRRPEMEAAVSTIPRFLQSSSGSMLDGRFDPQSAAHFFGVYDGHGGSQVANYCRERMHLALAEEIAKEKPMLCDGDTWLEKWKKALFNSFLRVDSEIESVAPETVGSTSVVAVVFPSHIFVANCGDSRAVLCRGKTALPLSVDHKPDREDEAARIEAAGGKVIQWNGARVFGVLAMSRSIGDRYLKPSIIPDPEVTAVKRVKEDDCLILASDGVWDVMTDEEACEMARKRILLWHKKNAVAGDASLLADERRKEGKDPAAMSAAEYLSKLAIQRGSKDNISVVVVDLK
Variant = S150I; result = -0.784%
Variant = V136I; result = 86%
Variant = D95R; result = 1.58%
Variant = S150H; result = 7.78%
Variant = S104F; result = -2.33%
Variant = K168G; result = 49.6%
Variant = N61Y; result = 69.1%
Variant = F47G; result = -6.23%
Variant = D48L; result = -8.84%
Variant = S150Y; result = -11.5%
Variant = I57L; result = 51.8%
Variant = D159T; result = -3.91%
Variant = V121Y; result = -6.05%

Other studies, line by line
Substance = PhoQ, residues 284 288 289 292 302 303 QWQEDG; target = PhoP, residues 12 14 15 18 19 QWHVF (Escherichia coli, UniProt P23836); assay = Sort-seq, item: YFP reporter; system = E. coli; conditions = PhoQ-PhoP variant library, with: 10 µM Mg2+; how to read = baseline: high Mg2+ state, higher = stronger signaling; quantity = fold induction; result = 5.58

Excerpt of the above (sample 1):
Oligonucleotide = UUCCCUCUGUUUUAUUUUUCCCCCGUGUGUCCCUACUAUGGUCAGAAAGCCUGUUGUGUCCACCAUCUCCAAAGGAGGUUACCUGCAGGG; result = 0.0407
Oligonucleotide = UUUAGACAGAAACAAGAAGCAACAGAGUCCCUUAAGUGCCAAGAGGAACUUCGAGAGCGCCUUCAUGAGGAGUCCAGGGCCAGAGAACAG; result = -0.493
Oligonucleotide = AAGUCCUGUGCUACACAUCGUAUGUACCGAAUCGGGAAAGGGUGGGAAAAAAAGGGAAAGUAUUAUGUUACGCCGUUCGGAUCUGCACUU; result = -0.0293
Oligonucleotide = UGCAGACGGGGAACCUGCUGAACUGGGGCCGCCUGCGGAAGAAGUGCCCGUCCACGCACAGCGAGGAGGUGAGCGUGGCGACACUCGCCG; result = -2.17
Oligonucleotide = AGUCCUGUGCUACACAUCGUAUGUACCGAAUCGGGAAAAAAAGGGAAAGGGUUUGGGAAAGUAUUAUGUUACGCCGUUCGGAUCUGCACU; result = -0.318
Oligonucleotide = UGCAGCUCUCCGGCUGGGAUCCUGGUUGACGCCAUGUCCCAGAAGCACCUUCAGAUCAACCAGACAUUUGAGGAGCUGCGACUGGUCACG; result = -1.78
